# Measurements gathered from unrelated publications.
SMILES,system,setting,measurement,result
C[C@@H](Oc1cc(-c2cnn(C3CCNCC3)c2)cnc1N)c1c(Cl)ccc(F)c1Cl,"human patients, plasma","oral, dose not given, cycle 2 day 1, median, added: avelumab",AUCtau,3320 ng·h/mL
Cc1noc(C)c1-c1cc(C(O)(c2ccccn2)c2ccccn2)c2nc(C3CC3)[nH]c2c1,"human male, fasted, plasma","oral, 6 mg once daily, cycle 1 day 8",AUCtau,3130 ng·h/mL
C[C@H]1Oc2cc(cnc2N)-c2c(nn(C)c2C#N)CN(C)C(=O)c2ccc(F)cc21,"human patients, plasma","oral, dose not given, cycle 2 day 1, mean, added: avelumab",AUCtau,6280 ng·h/mL
C=CC(=O)Nc1cc(Nc2nccc(Nc3cc(Cl)c(F)cc3C(C)(C)O)n2)c(OC)cc1N1CC[C@@H](N(C)C)C1,"human patients, plasma","oral, 100 mg daily, cycle 2 day 1, geometric mean",AUCtau,4370 ng·h/mL
Fc1ccc([C@@H]2CCNC[C@H]2COc2ccc3c(c2)OCO3)cc1,"human, CYP2D6 poor metabolizers","oral, 20 mg, steady state, dosing interval 24 h, geometric mean",AUCtau,899 ng·h/mL
CCCCCCCOc1ccc(CCC(N)(CO)CO)cc1C(F)(F)F.Cl,"healthy male humans, plasma","0.25 mg, day 21, mean",AUCtau,39.7 ng·h/mL
Cc1cc(-c2nccc3c2ccn3CC(=O)Nc2ccc(-c3cnccn3)cn2)ccn1,"human, plasma","oral, 15 mg once daily, day 16, geometric mean",AUCtau,1.86 µM·h
Cc1cc(C)c(CNC(=O)c2cc(Cl)c3c(c2C)O[C@@](C)([C@H]2CC[C@H](N(C)C)CC2)O3)c(=O)[nH]1,"human, plasma","oral, 200 mg, cycle 1 day 1, mean",AUCtau (unbound),499 ng·h/mL

# Some of these lines once more:
SMILES,system,setting,measurement,result
C[C@H]1Oc2cc(cnc2N)-c2c(nn(C)c2C#N)CN(C)C(=O)c2ccc(F)cc21,"human patients, plasma","oral, dose not given, cycle 2 day 1, mean, added: avelumab",AUCtau,6280 ng·h/mL
